Published values of several laboratories.
Parts stem from different laboratories: compare values within a part only. Positions count from the first letter of the parent shown.
Chain of UniProt Q15139 (whole entry, looked up): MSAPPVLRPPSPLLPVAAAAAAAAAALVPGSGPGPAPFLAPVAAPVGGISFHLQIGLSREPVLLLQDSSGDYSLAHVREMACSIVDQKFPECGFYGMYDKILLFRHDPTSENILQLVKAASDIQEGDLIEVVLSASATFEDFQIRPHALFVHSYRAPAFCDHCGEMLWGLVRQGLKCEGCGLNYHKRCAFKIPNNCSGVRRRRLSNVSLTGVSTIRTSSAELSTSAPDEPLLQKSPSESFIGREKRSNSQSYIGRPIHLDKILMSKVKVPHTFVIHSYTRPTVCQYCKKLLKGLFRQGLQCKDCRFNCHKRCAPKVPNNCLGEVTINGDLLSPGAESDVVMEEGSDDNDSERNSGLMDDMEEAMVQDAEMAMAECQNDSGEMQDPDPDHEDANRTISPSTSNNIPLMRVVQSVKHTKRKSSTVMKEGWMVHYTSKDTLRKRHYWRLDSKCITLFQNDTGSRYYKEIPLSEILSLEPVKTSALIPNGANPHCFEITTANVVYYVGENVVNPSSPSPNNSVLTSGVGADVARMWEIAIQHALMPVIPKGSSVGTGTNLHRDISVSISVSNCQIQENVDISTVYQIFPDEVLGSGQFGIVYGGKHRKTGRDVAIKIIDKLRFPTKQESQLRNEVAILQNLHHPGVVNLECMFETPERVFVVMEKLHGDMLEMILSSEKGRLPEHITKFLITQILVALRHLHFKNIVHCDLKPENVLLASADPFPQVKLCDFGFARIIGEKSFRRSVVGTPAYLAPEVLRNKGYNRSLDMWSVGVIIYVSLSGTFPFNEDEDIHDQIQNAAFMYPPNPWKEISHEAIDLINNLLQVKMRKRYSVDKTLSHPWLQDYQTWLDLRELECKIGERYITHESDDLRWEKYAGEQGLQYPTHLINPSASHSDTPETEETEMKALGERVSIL

Series 1
Target: inorganic phosphate, free oxyanion
Method: microfluidic competitive inhibition
Medium: in vitro, cell-free expressed
Concentration: not given
Notes: derived from inhibition constants, unchanged parent 615000 nM
Reading: lower = stronger binding
Starting sequence: PafA, mature enzyme, eGFP fusion (Elizabethkingia meningoseptica, UniProt Q9KJX5); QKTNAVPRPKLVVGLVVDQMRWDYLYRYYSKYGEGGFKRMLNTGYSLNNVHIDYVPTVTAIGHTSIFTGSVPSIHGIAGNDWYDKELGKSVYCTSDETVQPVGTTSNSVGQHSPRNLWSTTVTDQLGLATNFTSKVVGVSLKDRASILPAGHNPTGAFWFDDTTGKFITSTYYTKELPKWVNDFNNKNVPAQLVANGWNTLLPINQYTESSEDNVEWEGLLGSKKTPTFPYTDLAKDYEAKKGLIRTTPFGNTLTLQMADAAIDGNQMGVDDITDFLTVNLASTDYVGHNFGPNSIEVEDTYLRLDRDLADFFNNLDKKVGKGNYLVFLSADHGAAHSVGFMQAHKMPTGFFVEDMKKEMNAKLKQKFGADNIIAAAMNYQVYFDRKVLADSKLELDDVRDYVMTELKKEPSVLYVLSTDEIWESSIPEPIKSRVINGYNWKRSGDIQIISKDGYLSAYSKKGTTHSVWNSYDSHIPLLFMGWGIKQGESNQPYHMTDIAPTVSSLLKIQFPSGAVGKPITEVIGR
| Change | phosphate dissociation constant [µM] |
| --- | --- |
| P428G | 484 |
| N437V | 406 |
| T278V | 576 |
| G321A | 580 |
| Y286V | 515 |
| S467G | 385 |
| Y455G | 397 |
| A377V | 560 |

Series 2
Target: UDP-N-acetylglucosamine--peptide N-acetylglucosaminyltransferase 110 kDa subunit (OGT, Homo sapiens, UniProt O15294)
Chain of UniProt O15294 (whole entry, looked up): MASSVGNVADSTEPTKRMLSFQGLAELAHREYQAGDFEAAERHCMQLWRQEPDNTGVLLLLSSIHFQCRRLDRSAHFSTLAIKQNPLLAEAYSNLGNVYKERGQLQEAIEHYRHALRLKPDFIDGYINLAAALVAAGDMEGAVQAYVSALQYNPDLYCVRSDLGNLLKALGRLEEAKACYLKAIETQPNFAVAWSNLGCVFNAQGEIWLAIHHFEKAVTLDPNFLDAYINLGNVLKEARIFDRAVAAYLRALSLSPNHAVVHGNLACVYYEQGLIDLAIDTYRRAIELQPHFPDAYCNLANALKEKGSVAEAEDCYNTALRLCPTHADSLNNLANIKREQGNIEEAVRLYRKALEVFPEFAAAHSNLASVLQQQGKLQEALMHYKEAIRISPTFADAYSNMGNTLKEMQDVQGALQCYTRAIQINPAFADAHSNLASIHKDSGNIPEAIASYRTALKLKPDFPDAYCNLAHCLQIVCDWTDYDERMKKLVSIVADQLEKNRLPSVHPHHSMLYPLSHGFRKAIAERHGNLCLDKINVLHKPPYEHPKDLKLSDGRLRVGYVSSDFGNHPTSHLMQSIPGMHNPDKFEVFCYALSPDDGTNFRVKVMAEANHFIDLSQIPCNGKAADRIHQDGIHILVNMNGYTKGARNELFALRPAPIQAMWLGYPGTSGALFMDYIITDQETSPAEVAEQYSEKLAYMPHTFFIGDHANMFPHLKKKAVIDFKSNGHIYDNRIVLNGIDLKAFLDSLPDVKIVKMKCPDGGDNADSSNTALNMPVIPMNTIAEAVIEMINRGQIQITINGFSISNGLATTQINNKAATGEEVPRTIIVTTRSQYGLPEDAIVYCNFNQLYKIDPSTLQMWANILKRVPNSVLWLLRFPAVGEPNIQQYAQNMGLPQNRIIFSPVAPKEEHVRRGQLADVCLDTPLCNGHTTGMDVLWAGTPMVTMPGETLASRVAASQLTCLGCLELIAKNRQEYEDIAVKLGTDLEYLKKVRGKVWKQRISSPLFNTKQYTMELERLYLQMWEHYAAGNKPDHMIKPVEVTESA
Observed: phage display binding
Method: phage display panning NGS
Molecule type: peptide
Notes: panning round 3
Relative to: OGT-panned over input library
| Molecule | fold enrichment |
| --- | --- |
| NTPQYYRPYYQITVK | 2.44 |
| SDDLYAPQYQIFFNA | 4.85 |
| DMYEYRYKPHYVIQI | 2.95 |
| QATSPFAPIYQMIRD | 1.8 |
| QNLEFFPKYQLVTR | 2.29 |
| SYRPMYQIVQPIKQY | 1.73 |
| SYMPVYQIDYTPAV | 4.07 |
| ESIYKPRYQISIAYA | 4.18 |

Series 3
Target: CCNB2, cyclin fold, Cln2 fusion (human)
Method: yeast growth competition, sequencing
Medium: yeast
Notes: strong parent motif
Relative to: not given
Reading: higher = stronger binding
Starting sequence: viral docking peptide; YKVKRRLVFGADD
| Change | normalised enrichment score |
| --- | --- |
| YKVKRRLVFGAAD [D12A] | 1.21 |
| YKVKRRLVVGADD [F9V] | 0.475 |
| YKVMRRLVFGADD [K4M] | -0.384 |
| YPVKRRLVFGADD [K2P] | 2.95 |
| YKVKWRLVFGADD [R5W] | 0.19 |
| YKVKKRLVLGADD [R5K F9L] | 0.402 |
| YKGKRRLVFGADD [V3G] | -0.143 |
| YSVKRRLVFGADD [K2S] | 2.12 |

Single results of other studies
| Structure (SMILES) | target | assay | conditions | how to read | measurement | value |
| --- | --- | --- | --- | --- | --- | --- |
| COC[C@H]1OC(=O)c2coc3c2[C@@]1(C)C1=C(C3=O)[C@@H]2CCC(=O)[C@@]2(C)C[C@H]1OC(C)=O | Serine/threonine-protein kinase D1 (PRKD1, Homo sapiens, UniProt Q15139) | enzyme activity, inhibitor | 0.5 µM | relative to: control | remaining activity | 97.3% |

For quick reference, copied from above (series 3):
| Change | normalised enrichment score |
| --- | --- |
| YKVMRRLVFGADD [K4M] | -0.384 |
| YPVKRRLVFGADD [K2P] | 2.95 |
| YKVKWRLVFGADD [R5W] | 0.19 |
| YKVKKRLVLGADD [R5K F9L] | 0.402 |
